# Literature values, collected from citations in different studies.
# ± gives the spread as reported.
# Sequence of UniProt Q9NSY1 (whole entry, looked up): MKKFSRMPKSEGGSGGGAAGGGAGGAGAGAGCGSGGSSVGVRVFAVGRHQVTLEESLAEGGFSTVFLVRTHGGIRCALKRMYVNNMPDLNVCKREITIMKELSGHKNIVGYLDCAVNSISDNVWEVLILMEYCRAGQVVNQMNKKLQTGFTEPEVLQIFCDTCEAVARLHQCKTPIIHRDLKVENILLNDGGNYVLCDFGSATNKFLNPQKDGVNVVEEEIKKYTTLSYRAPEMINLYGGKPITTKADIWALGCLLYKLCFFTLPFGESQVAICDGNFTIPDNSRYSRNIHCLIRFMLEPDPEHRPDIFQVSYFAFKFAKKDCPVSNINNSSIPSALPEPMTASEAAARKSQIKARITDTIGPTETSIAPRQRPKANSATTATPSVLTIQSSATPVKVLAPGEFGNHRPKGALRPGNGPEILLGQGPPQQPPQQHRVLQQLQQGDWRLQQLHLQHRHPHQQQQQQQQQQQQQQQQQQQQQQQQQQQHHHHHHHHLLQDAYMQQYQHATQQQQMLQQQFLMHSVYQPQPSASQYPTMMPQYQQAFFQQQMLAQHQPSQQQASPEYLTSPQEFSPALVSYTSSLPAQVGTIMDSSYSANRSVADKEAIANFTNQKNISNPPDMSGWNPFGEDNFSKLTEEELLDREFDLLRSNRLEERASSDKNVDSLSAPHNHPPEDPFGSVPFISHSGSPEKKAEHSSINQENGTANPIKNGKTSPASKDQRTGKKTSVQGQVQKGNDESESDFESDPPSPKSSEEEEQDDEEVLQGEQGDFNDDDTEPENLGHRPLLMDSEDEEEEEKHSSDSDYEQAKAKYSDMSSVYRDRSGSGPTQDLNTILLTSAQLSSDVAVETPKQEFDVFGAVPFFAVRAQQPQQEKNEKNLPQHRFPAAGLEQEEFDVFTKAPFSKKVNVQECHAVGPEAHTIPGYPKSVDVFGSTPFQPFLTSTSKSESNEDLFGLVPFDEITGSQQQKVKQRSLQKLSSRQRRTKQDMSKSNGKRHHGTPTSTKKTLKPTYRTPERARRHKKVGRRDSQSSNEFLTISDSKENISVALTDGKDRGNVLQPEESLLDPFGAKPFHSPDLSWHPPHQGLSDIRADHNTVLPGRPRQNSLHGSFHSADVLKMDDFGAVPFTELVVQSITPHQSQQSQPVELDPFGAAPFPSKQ
SMILES,tested on,assay,system,conditions,scale,measurement,result
c1ccc2c(c1)ccc1c3ccccc3ccc21,,slow stirring,,,,logKow,5.95
C[C@@H](Oc1ccc(S(C)(=O)=O)cc1C(=O)N1C[C@@H]2C[C@]2(c2cc(C(F)(F)F)on2)C1)C(F)(F)F,,,human,once daily dosing,,time to steady state,6 days
CNC(C)C1CCC(N)C(OC2C(N)CC(N)C(OC3OCC(C)(O)C(NC)C3O)C2O)O1 (centres unmarked),Escherichia coli,,clinical isolate RKI-No_1023/14,,,MIC,1 µg/mL
CN[C@@H](C)C(=O)N[C@H]1CN(S(=O)(=O)c2cccc(S(=O)(=O)N3CC[C@H]4CC[C@@H](C(=O)NC(c5ccccc5)c5ccccc5)N4C(=O)[C@@H](NC(=O)[C@H](C)NC)C3)c2)CC[C@H]2CC[C@@H](C(=O)NC(c3ccccc3)c3ccccc3)N2C1=O,,,advanced solid tumour patients,"dose not given, monotherapy",,TEAE fatigue incidence,17.4%
O=C(c1cc(Cc2n[nH]c(=O)c3ccccc23)ccc1F)N1CCN(C(=O)C2CC2)CC1,,,human,"oral tablet, 100 mg twice daily, multiple dose",,AUC(last),16700 ng·h/mL
CO[C@@H](C)Cn1c(=O)n(C)c2cnc3ccc(-c4cncc(C(C)(C)O)c4)cc3c21,,item: vomiting,cancer patients,"dose not given, monotherapy",,patients with related adverse event,31.3%
CCCCCC(CCC)C(=O)O (centres unmarked),,scoliosis or lordosis,zebrafish embryo,nominal concentration,,EC10,41 µM
NC12CNCCNCC(N)(CNCCNC1)CNCCNC2,,,,ammonium group deprotonation,,pKa2,~5.3
N=C(N)c1ncn([C@@H]2O[C@H](CO)[C@@H](O)[C@H]2O)n1,,,rat,30 mg/kg,,oral bioavailability,9.91%
Nc1cc(C(F)(F)F)c(-c2nc(N3CCOCC3)nc(N3CCOCC3)n2)cn1,"BMP2K (Homo sapiens, UniProt Q9NSY1)",enzyme activity,,10 µM,baseline: untreated,remaining activity,87%
C[C@]1(c2nc3c(C(N)=O)cccc3[nH]2)CCCN1,,,,,,pKa2,12.8
CNC[C@H](O)[C@@H](O)[C@H](O)[C@H](O)CO.O=C([O-])CN1CCN(CC(=O)[O-])CCN(CC(=O)O)CCN(CC(=O)[O-])CC1.[Gd+3],,,3.0 M NaClO4,25 °C,,stability constant KGd(HL),14 M⁻¹
CC1(C)S[C@@H]2[C@H](NC(=O)[C@H](N)c3ccccc3)C(=O)N2[C@H]1C(=O)O,Escherichia coli,,clinical isolate RKI-No_1023/14,,,MIC,> 16 µg/mL
NC(=O)N1c2ccccc2C=Cc2ccccc21,,,mouse,"i.p., 6 Hz seizure test, 32 mA",,protective index,1.8
CN(C)C(=O)c1cc2cnc(Nc3ccc(N4CCNCC4)cn3)nc2n1C1CCCC1,,item: vomiting,advanced solid tumour or lymphoma patients,"dose not given, 3 weeks on 1 week off, any grade",baseline: patients,adverse event incidence,35.8%
CCCCC1=NC2(CCCC2)C(=O)N1Cc1ccc(-c2ccccc2S(=O)(=O)Nc2noc(C)c2C)c(COCC)c1,,,human,,baseline: dose,renal excretion,~2%
CN1CC(=O)N2[C@H](c3ccc4c(c3)OCO4)c3[nH]c4ccccc4c3C[C@@H]2C1=O,,,rat,"oral, 1 mg/kg",,Cmax,82.1 ± 46.3 ng/mL
CCC(CC)C(=O)O,,pericardial and yolk oedema,zebrafish embryo,nominal concentration,,EC10,363 µM
CN1CCC(COc2cnc(-c3cccc(Cn4nc(-c5cccc(C#N)c5)ccc4=O)c3)nc2)CC1,,exposure-response analysis,human patients,dose not given,,median exposure,25.3 µg/mL
CC(C)c1ncc(C(=O)N2CCOC3(CCN(Cc4ccc(F)c(CCNC[C@H](O)c5ccc(O)c6[nH]c(=O)sc56)c4)CC3)C2)s1,,,human,inhaled,,lung deposited fraction,0.62
O=C[C@H](F)[C@@H](O)[C@H](O)[C@H](O)CO [fluorine-18 labelled],,,,,,absorbed dose myocardium,32.8 µGy/MBq
Cc1cc(-c2nccc3c2ccn3CC(=O)Nc2ccc(-c3cnccn3)cn2)ccn1,,,rat,"oral, up to 200 mg/kg",,"nervous function, body weight, body temperature",no effect
Nc1nc(=O)n([C@@H]2CS[C@H](CO)O2)cc1F,,,mouse,600 mg/kg,,bioavailability,85%
CN(C(=O)C(C)(C)c1cc(C(F)(F)F)cc(C(F)(F)F)c1)c1cnc(N2C[C@H]3COCCN3C[C@H]2CO)cc1-c1ccc(F)cc1[14CH3],,,human,once-daily dosing,,time to steady state,5 to 7 days
C[C@H]1COCCN1c1nc(-c2cnc(N)cc2C(F)F)nc(N2CCOCC2)n1,ASPC1,,,,,GI50,0.468 µM
CCC(C)n1ncn(-c2ccc(N3CCN(c4ccc(OCC5COC(Cn6cncn6)(c6ccc(Cl)cc6Cl)O5)cc4)CC3)cc2)c1=O (centres unmarked),,,,first-order absorption model,,absorption rate constant,0.75 h⁻¹

# For quick reference, copied from above:
SMILES,tested on,assay,system,conditions,scale,measurement,result
CNC[C@H](O)[C@@H](O)[C@H](O)[C@H](O)CO.O=C([O-])CN1CCN(CC(=O)[O-])CCN(CC(=O)O)CCN(CC(=O)[O-])CC1.[Gd+3],,,3.0 M NaClO4,25 °C,,stability constant KGd(HL),14 M⁻¹
CCCCCC(CCC)C(=O)O (centres unmarked),,scoliosis or lordosis,zebrafish embryo,nominal concentration,,EC10,41 µM
Nc1cc(C(F)(F)F)c(-c2nc(N3CCOCC3)nc(N3CCOCC3)n2)cn1,"BMP2K (Homo sapiens, UniProt Q9NSY1)",enzyme activity,,10 µM,baseline: untreated,remaining activity,87%
